Published values from different studies.
Numbered parts are unrelated; each lists some results of a single study.

Sample 1 — method: competitive binding panel; tested at: 1 µM; reference: vehicle
SMILES: CN1CCN(C(=O)c2ccc(NC(=O)Nc3ccc(N(C)c4ccnc(Nc5ccc(CS(C)(=O)=O)cc5)n4)cc3)cc2)CC1
For MAPKAPK2 (Homo sapiens, UniProt P49137): remaining binding read 100%.
The remaining binding was 86% (MAP3K15 (Homo sapiens, UniProt Q6ZN16)).
NLK (Homo sapiens, UniProt Q9UBE8) — remaining binding: 80%.
The remaining binding was 91% (MAP3K11 (Homo sapiens, UniProt Q16584); measured: MLK3).
MAP4K2 (Homo sapiens, UniProt Q12851) — remaining binding: 43%.
It gave 44% for remaining binding (ABL2 (Homo sapiens, UniProt P42684)).
It gave 81% for remaining binding (MELK (Homo sapiens, UniProt Q14680)).
The remaining binding was 63% (CSNK2A2 (Homo sapiens, UniProt P19784)).
The remaining binding was 71% (LRRK2 (Homo sapiens, UniProt Q5S007, G2019S)).
ERBB4 (Homo sapiens, UniProt Q15303) — remaining binding: 77%.
The remaining binding was 85% (EPHB4 (Homo sapiens, UniProt P54760)).
EIF2AK4 (Homo sapiens, UniProt Q9P2K8, S808G) — remaining binding: 100%.

Sample 2 — effect on: cell-free assay; method: competition with immobilised ligand; tested at: 1 µM
SMILES: CCS(=O)(=O)c1cc2cc(C[C@@](O)(CC(C)(C)c3ccc(F)cc3C(N)=O)C(F)(F)F)[nH]c2cn1
For EGFR (Homo sapiens, UniProt P00533, T790M): remaining binding read 88%.
PTK6 (Homo sapiens, UniProt Q13882) — remaining binding: 97%.
The remaining binding was 85% (PLK1 (Homo sapiens, UniProt P53350)).
For MAP2K5 (Homo sapiens, UniProt Q13163): remaining binding read 81%.
It gave 100% for remaining binding (EPHA8 (Homo sapiens, UniProt P29322)).
It gave 99% for remaining binding (Tyrosine-protein kinase ABL1, phosphorylated (ABL1, Homo sapiens, UniProt P00519, H396P)).
It gave 100% for remaining binding (DDR2 (Homo sapiens, UniProt Q16832)).
For STK26 (Homo sapiens, UniProt Q9P289): remaining binding read 91%.
PIK3CA (Homo sapiens, UniProt P42336, Q546K) — remaining binding: 69%.
Non-receptor tyrosine-protein kinase TYK2, JH1 (TYK2, Homo sapiens, UniProt P29597) — remaining binding: 82%.
CAMK2B (Homo sapiens, UniProt Q13554) — remaining binding: 100%.
The remaining binding was 98% (ULK3 (Homo sapiens, UniProt Q6PHR2)).
It gave 81% for remaining binding (KIT (Homo sapiens, UniProt P10721, V559D/V654A)).

Sample 3 — species: mouse; sample: microsomes or S9; tested at: 2 µM; time: 0.5 h
`COC(c1ccc(Cl)cc1)(c1ccc(Cl)cc1)C(Oc1nccc(C)n1)C(=O)O` (centres unmarked) gave a remaining compound of 84.7%.
`CCOc1ccc(CCNS(=O)(=O)c2ccc3c(c2)C(C)(C)C(=O)N3)cc1OCC` has a remaining compound of less than 1%.
`C[C@H]1CN2C[C@H](O)CC2CN1Cc1cc2c(cc1Cl)OCO2` (some centres unmarked) has a remaining compound of 26.9%.
The remaining compound of `CCN(CC)C(=O)Cn1nc(S(C)(=O)=O)nc1-c1ccccc1OC` is reported as 87.7%.
`Cc1cc(C[C@@H]2COC[C@@H]2NC(=O)c2cc(=O)n(-c3ccccc3)[nH]2)on1` gave a remaining compound of 65.7%.
The remaining compound of `Cc1ccc(-c2ccccc2CN2C[C@@H](CN(C)C)[C@@H](CO)C2)o1` is reported as 1.55%.
`COc1ccc(Br)cc1CNC(=O)C(C)n1nc(C)n2c(cc3occc32)c1=O` (centres unmarked) has a remaining compound of 0.897%.
`COc1cc(CNC(C)(C)C)cc(Br)c1OCc1cccs1` has a remaining compound of 3.23%.
The remaining compound of `CCCNc1nc(C)cc(=O)n1Cc1ccc(-c2ccccc2-c2nnn[nH]2)cc1` is reported as 0.396%.
The remaining compound of `COC(=O)C(OC(C)(C)C)c1cc2c(nc1C)C(=O)NCC2` (centres unmarked) is reported as 99.3%.
`O=C(C1CCCN1S(=O)(=O)c1ccc(-c2ccc(=O)[nH]n2)s1)N1CCc2ccccc21` (centres unmarked) has a remaining compound of 0.312%.
With `Nc1cccc(CCC2CCc3ccccc3N2)c1` (centres unmarked) the remaining compound was 8.94%.

Sample 4 — effect on: enzyme activity; mode: inhibitor; tested at: 0.5 µM; reference: control
Compound: CC(C)c1nn(-c2c(Cl)cccc2Cl)c2nc(Cc3ccc(OCCO)cc3)[nH]c(=O)c12
For TAOK3 (Homo sapiens, UniProt Q9H2K8): remaining activity read 91.3%.
For PKN1 (Homo sapiens, UniProt Q16512): remaining activity read 97%.
For FLT4 (Homo sapiens, UniProt P35916): remaining activity read 103%.
For HIPK1 (Homo sapiens, UniProt Q86Z02): remaining activity read 102%.
The remaining activity was 96.3% (PRKX (Homo sapiens, UniProt P51817)).
For MARK3 (Homo sapiens, UniProt P27448): remaining activity read 92.2%.
FER (Homo sapiens, UniProt P16591) — remaining activity: 89.4%.
For CDC42BPA (Homo sapiens, UniProt Q5VT25): remaining activity read 89.5%.
It gave 91.1% for remaining activity (MATK (Homo sapiens, UniProt P42679)).
The remaining activity was 95.7% (PASK (Homo sapiens, UniProt Q96RG2)).
ITK (Homo sapiens, UniProt Q08881) — remaining activity: 98.6%.
For LIM domain kinase 1 (LIMK1, Homo sapiens, UniProt P53667): remaining activity read 107%.
For NLK (Homo sapiens, UniProt Q9UBE8): remaining activity read 97.6%.
It gave 103% for remaining activity (ALK (Homo sapiens, UniProt Q9UM73)).
NEK11 (Homo sapiens, UniProt Q8NG66) — remaining activity: 109%.
For SRC (Homo sapiens, UniProt P12931): remaining activity read 86.7%.
It gave 92% for remaining activity (FGR (Homo sapiens, UniProt P09769)).
For AKT1 (Homo sapiens, UniProt P31749): remaining activity read 94.7%.
FYN (Homo sapiens, UniProt P06241) — remaining activity: 102%.
The remaining activity was 68.1% (STK25 (Homo sapiens, UniProt O00506)).
The remaining activity was 6.14% (Cyclin-dependent kinase 3, with cyclin E (CDK3, Homo sapiens, UniProt Q00526)).
Insulin receptor (INSR, Homo sapiens, UniProt P06213) — remaining activity: 100%.

Excerpt of the above (sample 3):
`COc1ccc(Br)cc1CNC(=O)C(C)n1nc(C)n2c(cc3occc32)c1=O` (centres unmarked) has a remaining compound of 0.897%.
`O=C(C1CCCN1S(=O)(=O)c1ccc(-c2ccc(=O)[nH]n2)s1)N1CCc2ccccc21` (centres unmarked) has a remaining compound of 0.312%.
With `Nc1cccc(CCC2CCc3ccccc3N2)c1` (centres unmarked) the remaining compound was 8.94%.
`CCOc1ccc(CCNS(=O)(=O)c2ccc3c(c2)C(C)(C)C(=O)N3)cc1OCC` has a remaining compound of less than 1%.
The remaining compound of `COC(=O)C(OC(C)(C)C)c1cc2c(nc1C)C(=O)NCC2` (centres unmarked) is reported as 99.3%.
